Published values of several laboratories.
Compare with care: the assays were run in different laboratories. ± marks the error that the study gave.

CC1(C)CC(=O)C(C2C3=C(CC(C)(C)CC3=O)Oc3ccc(Cl)cc32)=C(O)C1 (stereo not drawn)
IC50 (3T3-L1 pre-adipocytes; cell viability, MTT; 72 h): 56.5 ± 1.07 µg/mL

CCCN1C(=O)/C(=C/C(=O)OCC)S/C1=N\N=C\c1cccc2cc3ccccc3nc12
IC50 (PATU; cell proliferation, MTT; 48 h): > 50 µM

O=C(NC1(O)C(=O)c2ccccc2C1=O)c1ccc(-c2csnn2)cc1
IC50 (HEK293-A GFP-LC3B; LC3B puncta formation; 22 h, added: chloroquine, torin1): > 20 µM

Cn1ncc(-c2ccc3c(=O)[nH]nc(CN)c3c2)c1-c1c(F)c(Cl)cc(OC2CC2)c1C#N
IC50 (Granta-519; cell viability, inhibitor, CellTiter-Glo; 120 h, baseline-subtracted): 0.02 µM

CC(C)c1ccc(N(C)c2ccc3c(c2)OCC[C@H]3CNc2cnccc2C(=O)O)cc1
IC50 (MES-SA; cell growth or viability, ATP luminescence; 7 days): 0.0143 µM

C=CC(=O)N1CCC[C@@H](c2ccc(C(N)=O)c3[nH]ccc23)C1
IC50 (TMD8; cell growth or viability, ATP luminescence; 96 h): 0.434 µM

CCN(C(=O)c1cc(F)ccc1Oc1nncnc1N1CCC2(C1)CN(C(CCCN(C)CCOC)C(C)C)C2)C(C)C (stereo not drawn)
IC50 (MV4-11 (KMT2A-AF4, FLT3-ITD); mRNA level, QuantiGene multiplex, refers to: PBX3; concentration not given): 0.762 ± 0.065 µM

CCOc1cncc(-c2ccc(NC(=O)C3(c4ccnc(NS(=O)(=O)C5CC5)n4)CCOCC3)nc2)n1
IC50 (HH; cell growth or viability, ATP luminescence; 72 h): 0.002 µM

Cc1cc2c3c(c1)C(C)(c1ccccc1)CC(C)(C)N3C(=O)C2=O (stereo not drawn)
IC50 (HEK293-A GFP-LC3B; LC3B puncta formation; 22 h, added: chloroquine, torin1): > 20 µM

CN1CCC(N[C@H]2CCc3[nH]c4c(C(N)=O)ccc(-c5ccccc5Cl)c4c3C2)CC1
IC50 (MCF7 (paclitaxel-resistant); cell growth, inhibitor, CellTiter-Glo; 96 h): 1.41 µM

C=CC(=O)N1CC2C(=O)N(CCN(C)C)c3c(c4cc(Cl)c(-c5c(O)cccc5F)nc4n(-c4c(C)ccnc4C(C)C)c3=O)N2CC1C (stereo not drawn)
IC50 (NCI-H2122; cell growth or viability): 0.0564 µM

COc1ccc(N2C(=O)CS/C2=N\N=C\c2cccc3cc4ccccc4nc23)cc1
IC50 (PATU; cell proliferation, MTT; 48 h): > 50 µM

CC(C)OC(=O)[C@H](CO)NCc1cc(Cl)c(OCc2cccc(-c3ccccc3)c2Br)cc1OCc1cccnc1
IC50 (MC-38; cell growth or viability, MTT): > 10 µM

CCn1nc(Cl)c2c1-c1cnc(N)c(c1)O[C@H](C)c1cc(F)ccc1-c1nn(C)cc1C2
IC50 (Ba/F3 EML4-ALK v1; cell viability): 0.00668 µM

Cn1ccnc1S/C(=C\C=C(C#N)C#N)c1ccc(Cl)cc1
IC50 (mouse embryonic fibroblasts; cell viability, CellTiter-Glo; 48 h): 1.8 µM

CCCCn1cnc2ccc(-c3ccc(NC(=O)CC)nc3)cc2c1=O
IC50 (HCC827; cell growth or viability, CCK-8; 72 h): 1.21 µM

CN1C(=O)CS/C1=N\N=C\c1cccc2cc3ccccc3nc12
IC50 (PATU; cell proliferation, MTT; 48 h): 30.9 ± 6.7 µM

CNS(=O)(=O)Nc1nccc(Cc2c(C)c3ccc(Oc4ncccc4F)cc3oc2=O)c1F
IC50 (SW780; cell viability; 7 days): 0.0216 µM

N#Cc1c(N)nc2c(c1-c1ccc(F)cc1)Cc1cc(O)ccc1-2
IC50 (HH; cell growth or viability, ATP luminescence): 7.9 µM

COc1ccc(C(O)=CC(=O)c2ccc(C(C)(C)C)cc2)cc1.[Ru+2].c1ccc(-c2cccc(-c3ccccn3)n2)nc1.c1cnccn1
IC50 (DU-145; cytotoxicity; dark): 0.18 µM

C=CC(=O)N1CCCC(n2c(=O)c3ncccc3n(Cc3ccc(Oc4ccccc4)cc3)c2=O)C1 (stereo not drawn)
IC50 (H9; cell growth or viability, MTT; 72 h): 1 µM

CN1CC[C@@H](COc2cnc(C#N)cc2-c2ccn3nc(NC(=O)C4CC4)cc3c2)C1
IC50 (human monocyte-derived macrophages; cytokine release, refers to: TNF; added: LPS): 1.41 µM

CC1(C)CC(=O)C2=C(C1)Oc1ccc3ccccc3c1C2n1nnc2ccccc21 (stereo not drawn)
IC50 (3T3-L1 pre-adipocytes; cell viability, MTT; 72 h): 79.2 ± 1.43 µg/mL

Nc1cc2cccnc2c2ncccc12.[Cl-].[Cl-].[Ru+2].c1cnc2c(c1)ccc1cccnc12.c1cnc2c(c1)ccc1cccnc12
IC50 (HFF-1; cell growth or viability, MTT; dark): > 1000 µM

O=C1c2ccccc2-c2nc3nonc3nc21
IC50 (HEK293-A GFP-LC3B; LC3B puncta formation; 22 h, added: chloroquine, torin1): > 20 µM

CCOC(=O)C1CC(CC)C2C=CC3CCN(C(=O)C4CCC5C=CC6(CCCN6C(=O)C(Cc6ccccc6Cl)NC(C)=O)C(=O)N54)C3C(=O)N12 (stereo not drawn)
IC50 (MDA-MB-231 expressing mCherry; cell invasion, Boyden chamber): 12 µM

COc1ccc(CSC2C3=C(CCCC3=O)Oc3ccc(Br)cc32)cc1 (stereo not drawn)
IC50 (3T3-L1 pre-adipocytes; cell viability, MTT; 72 h): > 100 µg/mL

O=C(NCc1cc(F)cc(F)c1)[C@@]1(O)CCN(c2ccc3[nH]ccc3c2)C1=O
IC50 (C6; cell growth or viability): 1 µM

Cc1ccc([N+](=O)[O-])cc1S(=O)(=O)N(C)/N=C/c1cnc2ccc(Br)cn12
IC50 (LOX IMVI; cell growth or viability): 0.073 µM

O=C1CS/C(=N\N=C\c2cccc3cc4ccccc4nc23)N1c1ccc(F)cc1
IC50 (PATU; cell proliferation, MTT; 48 h): > 50 µM

N#Cc1c(N)nc2c(c1-c1cccs1)Cc1cc(O)ccc1-2
IC50 (HH; cell growth or viability, ATP luminescence): 62.9 µM

C[C@H]1[C@H](C)CC[C@]2(C)CC[C@]3(C)C(=CC(=O)[C@@H]4[C@@]5(C)CC[C@@H](O)[C@](C)(C(=O)O)[C@@H]5CC[C@]43C)[C@H]12
IC50 (HDF; cell growth or viability, MTT; 24 h): 194 µM

CC1(C)CC(=O)C(C2C3=C(CC(C)(C)CC3=O)Oc3ccc4ccccc4c32)=C(O)C1 (stereo not drawn)
IC50 (3T3-L1 pre-adipocytes; cell viability, MTT; 72 h): 100 to 1000 µg/mL

Repeated from above:
O=C(NC1(O)C(=O)c2ccccc2C1=O)c1ccc(-c2csnn2)cc1
IC50 (HEK293-A GFP-LC3B; LC3B puncta formation; 22 h, added: chloroquine, torin1): > 20 µM

CC1(C)CC(=O)C(C2C3=C(CC(C)(C)CC3=O)Oc3ccc4ccccc4c32)=C(O)C1 (stereo not drawn)
IC50 (3T3-L1 pre-adipocytes; cell viability, MTT; 72 h): 100 to 1000 µg/mL

COc1ccc(N2C(=O)CS/C2=N\N=C\c2cccc3cc4ccccc4nc23)cc1
IC50 (PATU; cell proliferation, MTT; 48 h): > 50 µM

COc1ccc(CSC2C3=C(CCCC3=O)Oc3ccc(Br)cc32)cc1 (stereo not drawn)
IC50 (3T3-L1 pre-adipocytes; cell viability, MTT; 72 h): > 100 µg/mL
